Assay results of several laboratories.
Several values in a cell are separate wells, animals, samples, runs or records. ± marks the error that the study gave.

`N#Cc1ccc(C(c2ccc(C#N)cc2)n2cncn2)cc1` gave a plasma concentration of 114 ± 28.5 ng/mL (human patients, plasma; oral, 10 mg daily, day of surgery).
The plasma concentration of `C[C@H](CCC(=O)NCC(=O)O)[C@H]1CC[C@H]2[C@@H]3CC[C@@H]4C[C@H](O)CC[C@]4(C)[C@H]3CC[C@]12C` is reported as 13.3 ± 3.3 nM (healthy human volunteers, plasma; dose not given, 0 h, baseline phase, no drug).
The plasma concentration of `CC1(C)CCC(CN2CCN(c3ccc(C(=O)NS(=O)(=O)c4ccc(NCC5CCOCC5)c([N+](=O)[O-])c4)c(Oc4cnc5[nH]ccc5c4)c3)CC2)=C(c2ccc(Cl)cc2)C1` is reported as 2060 ng/mL (UPLC-MS/MS; human patients, responders; oral, dose not given, 6 h post-dose, steady state, median).
`Cn1c(=O)[nH]c2ncn(C)c2c1=O` has a plasma concentration of 15200 nM (human, both sexes, plasma; median).
The plasma concentration of `O=C(Nc1cnccc1Cl)N1CCN(Cc2ccc3c(c2)OC(F)(F)O3)CC1` is reported as 4.64 ng/mL and 8.63 ng/mL (human, plasma; 10 mg once daily, 24 h post dose day 7).
For `CO[C@H]1/C=C/O[C@@]2(C)Oc3c(C)c(O)c4c(O)c(c(/C=N/N5CCN(C)CC5)c(O)c4c3C2=O)NC(=O)/C(C)=C\C=C\[C@H](C)[C@H](O)[C@@H](C)[C@@H](O)[C@@H](C)[C@H](OC(C)=O)[C@@H]1C`, the plasma concentration was 8810 ng/mL (healthy male humans, plasma; oral, dose not given, 2 h, with cocktail).
`O=C(O)c1cccc(O)c1O`: plasma concentration “not detected” (human, plasma; dose not given, mean).
`O=C(O)CCCCCCCCCCCCCCC(=O)O` has a plasma concentration of 155 ± 29 nM (healthy human volunteers, plasma; dose not given, 0 h, baseline phase, no drug).
The plasma concentration of `CN1CCN(c2ccc(OC(F)(F)F)c(Nc3ncc4c(n3)-c3c(c(C(N)=O)nn3CCO)CC4)c2)CC1` is reported as 16.8 ng/mL and 23.7 ng/mL and 39.5 ng/mL and 41.4 ng/mL and 33.7 ng/mL and 47.4 ng/mL (LC-MS/MS; human, plasma; oral, 12 mg/m2, 0 h post-dose).
With `C[C@H](CCC(=O)NCC(=O)O)[C@H]1CC[C@H]2[C@@H]3[C@H](O)C[C@@H]4C[C@H](O[C@@H]5O[C@H](C(=O)O)[C@@H](O)[C@H](O)[C@H]5O)CC[C@]4(C)[C@H]3CC[C@]12C` the plasma concentration was 46.5 ± 11.6 nM (healthy human volunteers, plasma; dose not given, 0 h, baseline phase, no drug).
The plasma concentration of `Cn1cnc2[nH]c(=O)[nH]c(=O)c21` is reported as 4710 nM (human, both sexes, plasma; median).
The plasma concentration of `COc1cc2c(cc1OC)CN(CCc1ccc(NC(=O)c3cc(OC)c(OC)cc3NC(=O)c3cnc4ccccc4c3)cc1)CC2` is reported as 1700 nM (human, plasma; intravenous, 5.9 mg/kg, 60 min).
The plasma concentration of `C[C@H](CCC(=O)NCC(=O)O)[C@H]1CC[C@H]2[C@@H]3CC[C@@H]4C[C@H](OS(=O)(=O)O)CC[C@]4(C)[C@H]3CC[C@]12C` is reported as 840 ± 254 nM (healthy human volunteers, plasma; dose not given, 0 h, baseline phase, no drug).

A few entries again:
With `C[C@H](CCC(=O)NCC(=O)O)[C@H]1CC[C@H]2[C@@H]3[C@H](O)C[C@@H]4C[C@H](O[C@@H]5O[C@H](C(=O)O)[C@@H](O)[C@H](O)[C@H]5O)CC[C@]4(C)[C@H]3CC[C@]12C` the plasma concentration was 46.5 ± 11.6 nM (healthy human volunteers, plasma; dose not given, 0 h, baseline phase, no drug).
